# Assay results gathered from unrelated publications.
# Parts stem from different laboratories: compare values within a part only. Substitutions count along the parent as printed.

# Set 1 — method: protein-binding microarray; form: double-stranded DNA, one strand shown; sample: in vitro; concentration: 250 nM; notes: 60-bp whole probe; together with: salmon DNA 0.4 mg/ml; baseline: random background probes; reading: higher = stronger binding; constant ends, left off below: GCCTAGCAC … GTCTTGATTCGCTTGACGCTGCTG
# Target: Interferon regulatory factor 5, full length, phosphomimetic (IRF5, Homo sapiens, UniProt Q13568-2, residues 1-514, K96S/S451D/S453D/S456D/S462D)
Strand,log fluorescence [z-score]
TCACTTTACACACATCATCTTGTGCTA,1.17
GACGGACTGGGTCTCGCGACGTGCTAG,-0.724
GACCATCTCAGTTTCGAGACGTGCTAG,4.92
TTAAGACTGCTTTTCCTTTAGTGCTAG,0.681
TTAGGTTTGCTTTCCCTTTAGTGCTAG,1.58
TCAAGTTGGACCTCTCAGACTGTGCTA,-0.432
TTAGGTCTCGGTATCGGTCAGTGCTAG,4.42
AGCCATCTGCAGCAGGCCCCGTGCTAG,-0.595
CCACATCTCTGTCCGTGCTCGTGCTAG,-0.158
CTCCTTTTAATTTTTAACGAGTGCTAG,0.486
TTAGATAACGGGTATCGATTAGTGCTA,4.05
GACGGTCTCCTTCTCATGACGTGCTAG,-0.0244
TTACGACTGGGTATCGGTTAGTGCTAG,4.97
GACGGTTTCTTTCTCCTGACGTGCTAG,2.09
GTCTGTTTCCTCTTTCTTTGGTGCTAG,1.69
TTATATTTCGGGACTGGATTAGTGCTA,3.26
GACGGACTGGAGACTGGGGACGTGCTA,-0.561
GACGAACTGGGCTTTCGAGACGTGCTA,1.32
GACGGTCACGGTCTCGGGACGTGCTAG,-0.359

# Set 2 — target: CREB3L4, bZIP domain (human); method: DHFR protein complementation; sample: yeast; baseline: wild-type JUN-FOS pair; reading: higher = stronger binding
# Notes: single substitutions, most at no-binding floor
# Parent: JUN, bZIP domain (human); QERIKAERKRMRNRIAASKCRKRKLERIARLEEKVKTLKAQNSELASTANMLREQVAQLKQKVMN; partner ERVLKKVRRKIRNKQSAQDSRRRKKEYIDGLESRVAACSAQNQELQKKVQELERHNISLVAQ
Change,binding fitness [natural log]
A29Y,-1.35
L52F,-1.47
K36H,-1.53
I28F,-1.52
E44Q,-1.36
Q55V,-1.38
N42H,-1.47
L45V,-1.44
K36I,-1.57
S43M,-1.48
N42E,-1.45
M51E,-1.22
A29H,-1.14
A40T,-1.38
Q41S,-1.48
Q41T,-1.49

# Set 3 — method: RNA Bind-n-Seq; form: RNA; sample: in vitro; concentration: not given; baseline: input RNA pool; reading: higher = stronger binding
# Target: RING finger protein unkempt homolog, zinc fingers 1-6, GST-SBP tag (UNK, Homo sapiens, UniProt Q9C0B0, residues 30-357)
# Notes: RNA with constant flanks, human and mouse sites, ends assumed
# Constant ends, left off below: GGGAGUUCUACAGUCCGACGAUC … CAACAGAGGAUUGAGCAUCA
# Construct (chain): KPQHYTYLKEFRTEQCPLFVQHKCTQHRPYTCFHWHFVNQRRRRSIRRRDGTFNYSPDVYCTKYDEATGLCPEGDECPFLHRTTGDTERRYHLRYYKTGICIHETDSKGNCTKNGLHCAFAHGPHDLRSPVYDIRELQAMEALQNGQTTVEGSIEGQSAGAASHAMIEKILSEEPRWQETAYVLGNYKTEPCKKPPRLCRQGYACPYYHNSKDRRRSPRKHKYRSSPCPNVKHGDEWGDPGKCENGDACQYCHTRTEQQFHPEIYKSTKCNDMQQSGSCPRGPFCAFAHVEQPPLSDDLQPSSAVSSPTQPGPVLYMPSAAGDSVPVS
Strand,bound/input enrichment [ratio]
CAAGGCAGCCAGACUGCAUUUAGCCCAGAGUCCUUAUUUUAUGUUGUUUGGAAGAUUAUGCCAAACUUUAGGGGCUAUCAACAGCAGGACGCCCAUGAAUUCAUGCGCUACCUUUUGGAC,0.338
GAGCAAGACAACGGAGGCACCACAGAGUCUGUGAAAGAACAGGAGAUGAAGUGGACAGACCUGGCCUUACAGGGCCUCCACGAGAACGUCCCACCCGCUGGAAACUGAUGCCGGGCUCCU,0.138
CAGCACCCCAUCAAACCAGUGGUUCAUCCAACUGCUACCCCAAGCACUGUUCCUUCUAGUCCAUUUACGCUACAGUCUGAUCACCAGCCAAAGAAAUCAUUUGAUGCUAAUGGAGCAUCU,0.733
GAAAACAUAUUCAGUCGUAUAGUAGAUAUACAUGAACUUAGUGUAAAGUUACUGGGCCAUAUAGAAGAUACUGUAGAAAUGACAGAUGAAGGCAGUCCCCACCCAUUAGUAGGAAGCUGU,2.6
CAGGAGGACCCUUCACAAAGGACUCUGGGGCCACACAGUGAACAGGAAUACUGUCAGGCAAUCUCAGAACUCCCCAGUGAGUUAAGGAAAAUGGCCACUUACCGUAAGCCCGUUGUCCUU,0.0813
AUGCAGUAUGAGACCAACAGCUUGGACUUCAAAGUCGGGGCGGAUGGGACAGUCUUCGCCACUAGGGAGUUGAAGAUCCCCUCAGAGCAGGUGGCCUUUACCGUCACUGCGCGGGAACGC,0.0936
GAGGUACUUCUAAAACAUUUCCAAGGUCAAGUUAAUGAGCUGCAGGGUAAACAGGAAUCCCUUGCAGUUUCUCAAGUUCGAGAAGAAAUCCUACAGAAACAGAUUACAAAACUCUUGGAA,0.179
GUUGUCAGUGUGGACAAAGGAAGCAGAGCUGUGCUGUGGGCACAGCCUUGAUGCUGCACCCUUAGGAGCACCGUGGGACCCCACGGCCCAUCUUGGAGAAUGAUGUGUCCUCCCAGAAAA,0.126

# Set 4 — target: CCNE1, cyclin fold, Cln2 fusion (human); method: yeast growth competition, sequencing; sample: yeast; notes: strong parent motif; baseline: not given; reading: higher = stronger binding
# Parent: BRCA2 docking peptide (human); PSIKRNLLNEFDR; partner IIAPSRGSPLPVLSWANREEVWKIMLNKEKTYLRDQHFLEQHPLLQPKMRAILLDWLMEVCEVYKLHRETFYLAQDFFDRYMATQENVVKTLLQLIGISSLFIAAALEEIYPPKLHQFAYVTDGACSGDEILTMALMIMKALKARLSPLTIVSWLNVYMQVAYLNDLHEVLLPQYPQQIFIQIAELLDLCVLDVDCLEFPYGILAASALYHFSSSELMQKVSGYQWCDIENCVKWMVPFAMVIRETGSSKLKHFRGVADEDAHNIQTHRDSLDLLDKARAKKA
Change,normalised enrichment score
PSIKWNLLNEFDR [R5W],0.834
PSIKVNLLNEFDR [R5V],0.808
TSIKRNLLNEFDR [P1T],1.5
PSIKRNLLNEFFR [D12F],1.7
PSIKRNLLNEVDR [F11V],1.05
PSIKRNLLNEFDH [R13H],1.37
ISIKRNLLNEFDR [P1I],1.42
PSIKRNLLNECDR [F11C],-0.655
PSIKRYLLNEFDR [N6Y],0.414
PSIKRNLLNEFWR [D12W],2.31
PAIKRNLLNEFDR [S2A],1.08
PSIKRNLLFEFDR [N9F],1.4
PSIKRNLLNEFCR [D12C],1.31
PSIKRNLCNEFDR [L8C],1.11
PSIGRNLLNEFDR [K4G],-0.283
PSIKRNLLNENDR [F11N],0.0568
PQIKRNLLNEFDR [S2Q],1.67
MSIKRNLLNEFDR [P1M],1.03
PSIKRNRLNEFDR [L7R],0.729
PSIKRNLLNEFMR [D12M],1.53
RSIKRNLLNEFDR [P1R],2.2
PSIKKNLLNELDR [R5K F11L],-0.37
PSIKFNLLNEFDR [R5F],-0.732
PNIKRNLLNEFDR [S2N],1.17
PSIKRNLLNVFDR [E10V],0.872

# Repeated from above (set 4):
Change,normalised enrichment score
PSIKRNLLNEFWR [D12W],2.31
PSIKRNLLNEFDH [R13H],1.37
ISIKRNLLNEFDR [P1I],1.42
PSIKRNLLFEFDR [N9F],1.4
PSIKRNLLNEFCR [D12C],1.31
PSIKRNLCNEFDR [L8C],1.11
